# Measurements pooled from the literature.
# Parts stem from different laboratories: compare values within a part only. Changes are numbered by the printed parent chain.

# Set 1 — method: protein-binding microarray; molecule type: double-stranded DNA, one strand shown; matrix: in vitro; concentration: 940 nM top; setting: 60-bp whole probe; with: salmon DNA 0.4 mg/ml; baseline: random background probes; direction: higher = stronger binding; constant ends, left off below: GCCTAGCAC … GTCTTGATTCGCTTGACGCTGCTG
# Target: Interferon regulatory factor 5, full length, phosphomimetic (IRF5, Homo sapiens, UniProt Q13568-2, residues 1-514, S451D/S453D/S456D/S462D)
Strand,fitted relative affinity
TTAGGCTTCCTTCTCCTTTAGTGCTAG,0.276 z-score
TCATAAGTTTCACTCTGCACTGTGCTA,5.96 z-score
ACTTCATTGCATATAGAAAAGTGCTAG,-0.123 z-score
GACGGTTTTGACTTTCGGGACGTGCTA,1.62 z-score
TTTTGAAGTTTGGCGTTGACGTGCTAG,-0.132 z-score
CTAGGTATCGACTTTCGGTTAGTGCTA,5.22 z-score
GACGGACTTCTTTTCCTGACGTGCTAG,0.337 z-score
TACGATTTCGGGACTGGAGACGTGCTA,-0.0257 z-score

# Set 2 — method: competition protein-binding microarray; molecule type: double-stranded DNA, one strand shown; matrix: in vitro; concentration: 2 µM; with: Cbf1 competitor, 0.05 µM; direction: higher = stronger binding
# Target: Phosphate system positive regulatory protein PHO4, full length, GST-tagged (PHO4, Saccharomyces cerevisiae, UniProt P07270, residues 1-312)
# Setting: whole 60-bp probe, lowest competitor level
# Construct (chain): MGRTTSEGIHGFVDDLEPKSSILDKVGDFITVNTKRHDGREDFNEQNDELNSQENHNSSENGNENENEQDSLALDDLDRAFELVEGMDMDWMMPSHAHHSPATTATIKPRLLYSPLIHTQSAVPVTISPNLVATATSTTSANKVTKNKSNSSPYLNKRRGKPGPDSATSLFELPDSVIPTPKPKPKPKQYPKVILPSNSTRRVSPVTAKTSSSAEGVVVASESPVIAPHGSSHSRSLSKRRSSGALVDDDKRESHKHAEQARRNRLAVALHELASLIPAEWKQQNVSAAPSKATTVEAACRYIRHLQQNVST
Strand,fluorescence intensity [a.u.]
CGTCCTAGTGATTGGTGAGTGGGTGCCATGAGGAAGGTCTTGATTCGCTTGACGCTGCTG,7260
CTTCTGTAAATTTGTCACATAACTTGACGCGCCCCGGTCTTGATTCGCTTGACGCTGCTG,3500
TAGGCCGTACCGGTTCTCGTGGTGATGTTACCCAAGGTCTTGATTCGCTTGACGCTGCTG,6060
AAGCCTTTGGAACGCCATGTGTAAGGTGCAATGGACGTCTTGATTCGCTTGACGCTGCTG,8780
TAAGTTTTTGGCCTGTGCGTGTTGATAAGGGAAAGAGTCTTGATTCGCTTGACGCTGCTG,7860
CAACTAAAATGTCCAGACATGATGTTAAGCGGAAGGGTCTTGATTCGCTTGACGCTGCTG,6110
CTGACGGTAGCGCTCCAGGTGATGCTGGTGTTTCATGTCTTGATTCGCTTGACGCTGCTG,4260
GATCAAAAAAATACTCACGTGTCCTGGAGTCATAAAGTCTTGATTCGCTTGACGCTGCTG,15200

# Further values, each from its own experiment
# P1: viral docking peptide; PTARRRLLHDLDT; partner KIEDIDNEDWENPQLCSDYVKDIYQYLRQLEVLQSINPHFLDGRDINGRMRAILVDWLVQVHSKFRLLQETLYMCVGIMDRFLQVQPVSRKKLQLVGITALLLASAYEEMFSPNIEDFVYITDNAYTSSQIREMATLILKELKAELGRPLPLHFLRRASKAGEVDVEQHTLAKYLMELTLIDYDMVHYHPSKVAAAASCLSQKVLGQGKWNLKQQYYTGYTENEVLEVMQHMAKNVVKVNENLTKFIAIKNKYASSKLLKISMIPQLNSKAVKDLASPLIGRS
# P2: PafA, mature enzyme, eGFP fusion (Elizabethkingia meningoseptica, UniProt Q9KJX5); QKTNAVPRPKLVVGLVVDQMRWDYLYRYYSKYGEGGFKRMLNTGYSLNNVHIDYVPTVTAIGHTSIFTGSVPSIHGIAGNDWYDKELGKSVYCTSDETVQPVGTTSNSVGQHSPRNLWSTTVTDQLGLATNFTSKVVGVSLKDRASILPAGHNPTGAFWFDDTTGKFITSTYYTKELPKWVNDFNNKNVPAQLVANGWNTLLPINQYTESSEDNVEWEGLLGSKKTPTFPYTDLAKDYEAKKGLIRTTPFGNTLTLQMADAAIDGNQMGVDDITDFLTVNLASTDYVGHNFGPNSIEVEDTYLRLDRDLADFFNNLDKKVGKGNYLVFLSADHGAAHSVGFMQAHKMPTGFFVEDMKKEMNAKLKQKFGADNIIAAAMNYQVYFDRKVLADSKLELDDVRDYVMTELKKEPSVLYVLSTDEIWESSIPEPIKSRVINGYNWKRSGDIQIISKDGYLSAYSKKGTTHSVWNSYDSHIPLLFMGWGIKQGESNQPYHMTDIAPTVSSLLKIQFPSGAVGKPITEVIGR
Substitution,target,test,test system,setting,how to read,endpoint,value
P1 R5K,"CCNB2, cyclin fold, Cln2 fusion (human)","yeast growth competition, sequencing",yeast,weak parent motif,"baseline: not given, higher = stronger binding",normalised enrichment score,0.0688
P2 D162G,"vanadate, free oxyanion",microfluidic competitive inhibition,"in vitro, cell-free expressed","not given, derived from inhibition constants, unchanged parent 676 nM",lower = stronger binding,oxyanion analog dissociation constant,2.76 µM
